{"data": "Assay results pooled from the literature", "note": "Every numbered part comes from another study and shows a few of its results, in no order. “And” joins repeats or separate records; there may be more than shown.", "chain of UniProt Q6XUX3 (whole entry, looked up)": "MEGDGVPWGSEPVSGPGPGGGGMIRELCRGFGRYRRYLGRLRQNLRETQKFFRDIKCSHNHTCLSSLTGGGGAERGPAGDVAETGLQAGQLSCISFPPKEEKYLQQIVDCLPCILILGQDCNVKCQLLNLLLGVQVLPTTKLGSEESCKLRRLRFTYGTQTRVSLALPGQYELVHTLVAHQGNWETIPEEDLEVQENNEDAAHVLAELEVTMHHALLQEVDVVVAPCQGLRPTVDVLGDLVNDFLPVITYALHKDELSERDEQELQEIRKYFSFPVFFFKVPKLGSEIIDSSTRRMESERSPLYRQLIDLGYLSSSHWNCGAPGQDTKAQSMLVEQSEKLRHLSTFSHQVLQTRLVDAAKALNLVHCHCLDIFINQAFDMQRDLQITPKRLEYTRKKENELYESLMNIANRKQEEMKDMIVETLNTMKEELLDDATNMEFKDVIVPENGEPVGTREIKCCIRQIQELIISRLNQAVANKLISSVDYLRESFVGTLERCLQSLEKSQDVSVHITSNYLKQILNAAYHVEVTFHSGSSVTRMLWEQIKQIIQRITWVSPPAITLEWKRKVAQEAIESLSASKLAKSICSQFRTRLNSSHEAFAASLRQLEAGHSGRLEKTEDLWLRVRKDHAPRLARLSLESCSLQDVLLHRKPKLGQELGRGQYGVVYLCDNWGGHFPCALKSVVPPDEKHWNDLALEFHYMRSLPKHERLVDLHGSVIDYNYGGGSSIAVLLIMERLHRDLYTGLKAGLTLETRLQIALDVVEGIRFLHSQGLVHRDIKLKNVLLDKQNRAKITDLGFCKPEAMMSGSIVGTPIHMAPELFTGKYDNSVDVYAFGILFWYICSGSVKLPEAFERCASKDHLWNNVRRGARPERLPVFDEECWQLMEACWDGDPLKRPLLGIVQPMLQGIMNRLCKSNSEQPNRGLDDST", "chain of UniProt P08631 (whole entry, looked up)": "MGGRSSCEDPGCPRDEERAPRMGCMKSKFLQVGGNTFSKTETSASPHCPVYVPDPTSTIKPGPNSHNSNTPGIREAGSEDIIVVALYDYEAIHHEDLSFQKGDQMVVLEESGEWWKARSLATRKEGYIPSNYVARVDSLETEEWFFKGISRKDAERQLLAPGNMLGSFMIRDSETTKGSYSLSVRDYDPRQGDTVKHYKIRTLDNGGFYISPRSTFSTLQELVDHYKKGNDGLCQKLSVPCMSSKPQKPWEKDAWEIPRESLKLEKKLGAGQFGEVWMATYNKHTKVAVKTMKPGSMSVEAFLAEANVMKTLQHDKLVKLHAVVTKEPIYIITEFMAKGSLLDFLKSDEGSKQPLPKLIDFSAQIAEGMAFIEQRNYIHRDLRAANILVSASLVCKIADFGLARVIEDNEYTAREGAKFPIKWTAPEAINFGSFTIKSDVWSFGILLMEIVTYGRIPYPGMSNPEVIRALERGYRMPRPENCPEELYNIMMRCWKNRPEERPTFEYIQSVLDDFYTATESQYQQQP", "chain of UniProt O94806 (whole entry, looked up)": "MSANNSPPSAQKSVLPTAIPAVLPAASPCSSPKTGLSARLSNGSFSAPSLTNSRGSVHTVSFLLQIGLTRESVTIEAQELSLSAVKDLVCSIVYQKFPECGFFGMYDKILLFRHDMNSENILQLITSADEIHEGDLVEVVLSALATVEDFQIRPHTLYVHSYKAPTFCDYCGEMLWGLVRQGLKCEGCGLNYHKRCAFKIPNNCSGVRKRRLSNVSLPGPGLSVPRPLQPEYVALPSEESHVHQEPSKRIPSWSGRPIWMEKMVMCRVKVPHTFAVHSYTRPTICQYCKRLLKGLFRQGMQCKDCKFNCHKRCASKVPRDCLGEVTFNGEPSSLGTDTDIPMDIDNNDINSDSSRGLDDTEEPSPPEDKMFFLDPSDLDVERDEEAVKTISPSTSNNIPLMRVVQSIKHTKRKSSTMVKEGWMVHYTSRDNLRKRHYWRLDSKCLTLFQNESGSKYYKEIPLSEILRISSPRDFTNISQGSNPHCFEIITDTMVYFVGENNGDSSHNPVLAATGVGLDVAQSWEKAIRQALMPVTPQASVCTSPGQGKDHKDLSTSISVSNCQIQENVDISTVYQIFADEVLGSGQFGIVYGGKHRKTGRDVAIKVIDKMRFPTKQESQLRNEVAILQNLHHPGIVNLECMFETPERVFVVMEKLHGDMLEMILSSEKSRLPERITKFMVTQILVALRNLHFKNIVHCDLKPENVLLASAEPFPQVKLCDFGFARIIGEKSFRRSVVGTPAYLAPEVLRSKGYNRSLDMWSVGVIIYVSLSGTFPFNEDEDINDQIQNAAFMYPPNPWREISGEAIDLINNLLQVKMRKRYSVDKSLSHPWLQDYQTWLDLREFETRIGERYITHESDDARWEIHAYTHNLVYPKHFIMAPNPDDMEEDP", "chain of UniProt Q92630 (whole entry, looked up)": "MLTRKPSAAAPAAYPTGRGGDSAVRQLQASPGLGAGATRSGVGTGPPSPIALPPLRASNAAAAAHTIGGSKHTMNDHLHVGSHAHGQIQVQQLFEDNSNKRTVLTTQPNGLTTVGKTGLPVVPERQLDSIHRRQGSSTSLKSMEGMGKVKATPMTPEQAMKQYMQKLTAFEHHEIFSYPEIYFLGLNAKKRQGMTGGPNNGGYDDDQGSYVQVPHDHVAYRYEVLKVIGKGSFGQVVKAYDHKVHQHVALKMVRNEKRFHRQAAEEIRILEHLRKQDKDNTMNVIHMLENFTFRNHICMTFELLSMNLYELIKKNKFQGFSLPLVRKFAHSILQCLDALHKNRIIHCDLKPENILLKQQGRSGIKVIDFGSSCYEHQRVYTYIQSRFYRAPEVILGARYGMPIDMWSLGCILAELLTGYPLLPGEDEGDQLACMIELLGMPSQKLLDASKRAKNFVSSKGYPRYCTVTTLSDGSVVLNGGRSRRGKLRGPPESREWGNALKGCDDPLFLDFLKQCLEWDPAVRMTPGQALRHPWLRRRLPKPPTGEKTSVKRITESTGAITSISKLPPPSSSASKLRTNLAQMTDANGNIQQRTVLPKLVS", "chain of UniProt P53350 (whole entry, looked up)": "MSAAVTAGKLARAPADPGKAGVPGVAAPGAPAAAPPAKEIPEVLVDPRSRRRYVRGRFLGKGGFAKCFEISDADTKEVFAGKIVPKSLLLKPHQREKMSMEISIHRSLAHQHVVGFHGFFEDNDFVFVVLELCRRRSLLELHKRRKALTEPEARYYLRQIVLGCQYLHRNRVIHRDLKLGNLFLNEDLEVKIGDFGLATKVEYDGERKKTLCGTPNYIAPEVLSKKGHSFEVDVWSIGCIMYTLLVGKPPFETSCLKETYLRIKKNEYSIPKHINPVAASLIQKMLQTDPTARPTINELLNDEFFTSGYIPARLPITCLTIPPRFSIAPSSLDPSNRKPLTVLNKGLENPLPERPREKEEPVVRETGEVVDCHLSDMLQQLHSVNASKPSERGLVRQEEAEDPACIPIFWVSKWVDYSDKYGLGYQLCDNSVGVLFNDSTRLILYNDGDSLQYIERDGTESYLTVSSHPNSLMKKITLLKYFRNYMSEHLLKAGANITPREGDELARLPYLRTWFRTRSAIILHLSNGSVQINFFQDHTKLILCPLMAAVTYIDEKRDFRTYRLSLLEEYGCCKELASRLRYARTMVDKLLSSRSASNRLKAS", "chain of UniProt P15735 (whole entry, looked up)": "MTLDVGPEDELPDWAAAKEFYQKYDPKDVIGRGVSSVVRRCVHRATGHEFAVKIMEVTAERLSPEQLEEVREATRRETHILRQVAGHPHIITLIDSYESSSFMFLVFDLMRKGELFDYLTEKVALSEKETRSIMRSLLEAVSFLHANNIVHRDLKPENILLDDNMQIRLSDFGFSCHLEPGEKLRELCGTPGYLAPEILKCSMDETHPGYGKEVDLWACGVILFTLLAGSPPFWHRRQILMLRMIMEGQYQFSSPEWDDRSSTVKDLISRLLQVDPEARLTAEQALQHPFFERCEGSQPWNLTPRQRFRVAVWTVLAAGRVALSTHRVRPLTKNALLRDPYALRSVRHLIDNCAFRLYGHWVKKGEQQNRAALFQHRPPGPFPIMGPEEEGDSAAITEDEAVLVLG"}
{"data": "Block 1", "SMILES": "CNC(=O)c1ccc(-c2cnn3ccc(C(=O)N(C)c4ccc(Cl)c(C(=O)OC)c4)cc23)cc1", "organism": "Cryptosporidium parvum", "technique": "time-kill", "cells": "HCT-8", "strain": "nanoluciferase-expressing", "relative to": "DMSO control"}
{"tested at": "0.2469 µM", "time": "4 h", "luminescence remaining": "94.7% and 91%"}
{"tested at": "20 µM", "time": "48 h", "luminescence remaining": "12.9% and 10.9%"}
{"tested at": "20 µM", "time": "0 h", "luminescence remaining": "97.9% and 93.1% and 102% and 106% and 113% and 85.3% and 94.5%"}
{"tested at": "0.2469 µM", "time": "72 h", "luminescence remaining": "12.7% and 10.5%"}
{"tested at": "0.00102 µM", "time": "48 h", "luminescence remaining": "119% and 89.3%"}
{"data": "Block 2", "target": "Sodium-dependent dopamine transporter (SLC6A3, Homo sapiens, UniProt Q01959)", "effect on": "cell-free assay", "tested at": "10 µM", "chain of UniProt Q01959 (whole entry, looked up)": "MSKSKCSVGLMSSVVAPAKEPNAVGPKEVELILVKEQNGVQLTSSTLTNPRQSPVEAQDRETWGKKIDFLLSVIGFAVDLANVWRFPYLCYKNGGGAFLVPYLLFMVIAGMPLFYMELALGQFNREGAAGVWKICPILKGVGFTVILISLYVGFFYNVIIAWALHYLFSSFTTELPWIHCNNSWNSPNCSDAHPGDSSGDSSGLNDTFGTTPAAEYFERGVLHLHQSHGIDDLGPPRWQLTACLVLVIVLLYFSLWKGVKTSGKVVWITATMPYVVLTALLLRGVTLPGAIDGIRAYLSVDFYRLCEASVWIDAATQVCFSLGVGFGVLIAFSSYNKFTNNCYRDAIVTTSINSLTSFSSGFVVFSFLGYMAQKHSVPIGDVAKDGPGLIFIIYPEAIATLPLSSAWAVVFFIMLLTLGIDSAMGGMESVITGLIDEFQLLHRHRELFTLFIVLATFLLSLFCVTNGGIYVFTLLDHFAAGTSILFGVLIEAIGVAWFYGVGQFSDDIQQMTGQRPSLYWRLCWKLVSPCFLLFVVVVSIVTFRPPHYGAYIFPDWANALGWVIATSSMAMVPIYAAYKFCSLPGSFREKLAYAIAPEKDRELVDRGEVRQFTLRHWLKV"}
{"SMILES": "Nc1nc(NCc2ccccc2)nc(-c2ccccc2CO)n1", "inhibition [%]": 18.1}
{"SMILES": "CC(=O)Nc1ncc(CN2CCC[C@H](Cc3cc(C)nc(C)c3)C2)s1", "inhibition [%]": 13.4}
{"SMILES": "NC(=O)c1ccc2nc(-c3ccc(C4(N)CCC4)cc3)c(-c3ccccc3)n2n1", "inhibition [%]": 40}
{"SMILES": "Cn1nc(C(F)(F)F)cc1-c1cnc(N2CCc3cc(S(=O)(=O)Nc4c(F)cc(Cl)cc4F)cc(N4CCCC4=O)c32)nc1", "inhibition [%]": 14.5}
{"SMILES": "NS(=O)(=O)c1cc(NC(=O)Cc2ccccc2)ccc1Oc1cccc(Cl)c1", "inhibition [%]": 37}
{"SMILES": "Cc1ccc(-c2cnc([C@@]3(O)CC[C@H](C(=O)O)C(C)(C)C3)s2)cc1Nc1cccc(C(F)(F)F)n1", "inhibition [%]": 71}
{"SMILES": "CO[C@H]1CC[C@H](CNc2ccc(S(=O)(=O)NC(=O)c3ccc(N4CCN(CC5=C(c6ccc(Cl)cc6)CC(C)(C)CC5)CC4)cc3Oc3cnc4[nH]ccc4c3)cc2[N+](=O)[O-])CC1", "inhibition [%]": -13.1}
{"SMILES": "CN1CCN(C(=O)C(C)(C)c2ccc(C(=O)Nc3cn4cc(-c5cc(C(C)(C)C)cc(C(C)(C)C)c5)ccc4n3)cc2)CC1", "inhibition [%]": -0.51}
{"SMILES": "O=C(NNS(=O)(=O)c1ccccc1)c1cc(-c2ccnnc2)ccc1F", "inhibition [%]": 80.2}
{"SMILES": "CCC(=NO)C(C)=Cc1ccc(F)c(C)c1", "inhibition [%]": -18.9}
{"SMILES": "CC1CCN(c2ccnc(NCc3cn(C)cn3)n2)CC1", "inhibition [%]": 20.6}
{"SMILES": "CN(C)c1ncnc(-c2ccc3nc(Nc4cc(CN5CCN(C(=O)CC(F)(F)F)CC5)ccn4)[nH]c3c2)c1Cl", "inhibition [%]": -19}
{"SMILES": "C[C@@H](NC(=O)Nc1cc2[nH]ncc2c(CO)n1)c1ccccc1", "inhibition [%]": 46.5}
{"SMILES": "CCOc1ccc(S(=O)(=O)Nc2ccc(Cl)cc2C#Cc2cnc(C(=O)O)cc2OC)c2ncccc12", "inhibition [%]": 23.4}
{"SMILES": "Cn1cc(Cl)c2c(Oc3c(F)cc(Nc4cc(Cl)nc(N)n4)cc3F)ccnc21", "inhibition [%]": -11.4}
{"SMILES": "C[C@H](c1ccc(F)cc1)N(Cc1ccc(Cl)c(C(=O)O)c1)C(=O)c1cnc2ccccc2c1", "inhibition [%]": -12.3}
{"SMILES": "CCOc1cc(N2C3COCC2CN(C(=O)[C@H]2C[C@H](O)CN2c2ccc(Cl)cc2)C3)ccc1Cl", "inhibition [%]": 3.92}
{"data": "Block 3", "organism": "Vesicular stomatitis virus", "effect on": "pseudovirus infection", "technique": "FDA-approved drug library screen", "tested at": "concentration not given", "notes": "VSV-G control pseudotype", "relative to": "vehicle"}
{"Structure (SMILES)": "Cc1onc(-c2ccccc2)c1C(=O)N[C@@H]1C(=O)N2[C@@H]1SC(C)(C)[C@@H]2C(=O)[O-].[Na+]", "GFP-positive cells [%]": 112}
{"Structure (SMILES)": "[I-].[K+]", "GFP-positive cells [%]": 86.5}
{"Structure (SMILES)": "O=C1c2ccccc2C(=O)C1c1ccccc1", "GFP-positive cells [%]": 115}
{"Structure (SMILES)": "CN(C)CCc1c[nH]c2ccc(CS(=O)(=O)N3CCCC3)cc12.O=C(O)CC(O)C(=O)O", "GFP-positive cells [%]": 125}
{"Structure (SMILES)": "C[C@]12C=CC(=O)C=C1CC[C@@H]1[C@@H]2[C@@H](O)C[C@@]2(C)[C@H]1CC[C@]2(O)C(=O)COP(=O)([O-])[O-].[Na+].[Na+]", "GFP-positive cells [%]": 95}
{"Structure (SMILES)": "O=C(O)CCCN1CCC(O[C@@H](c2ccc(Cl)cc2)c2ccccn2)CC1.O=S(=O)(O)c1ccccc1", "GFP-positive cells [%]": 123}
{"Structure (SMILES)": "C[C@@H](Oc1cc(-c2cnn(C3CCNCC3)c2)cnc1N)c1c(Cl)ccc(F)c1Cl", "GFP-positive cells [%]": 60}
{"Structure (SMILES)": "Cc1c(OCC(F)(F)F)ccnc1C[S@@+]([O-])c1nc2ccccc2[nH]1", "GFP-positive cells [%]": 105}
{"data": "Block 4", "SMILES": "COc1ccc2c(c1)/C(=C/c1cnc[nH]1)C(=O)N2", "effect on": "enzyme activity", "action": "inhibitor", "tested at": "0.5 µM", "relative to": "control"}
{"target": "Serine/threonine-protein kinase D3 (PRKD3, Homo sapiens, UniProt O94806)", "remaining activity [%]": 38}
{"target": "Tyrosine-protein kinase HCK (HCK, Homo sapiens, UniProt P08631)", "remaining activity [%]": 96.1}
{"target": "Dual specificity tyrosine-phosphorylation-regulated kinase 2 (DYRK2, Homo sapiens, UniProt Q92630)", "remaining activity [%]": 76.9}
{"target": "RAF proto-oncogene serine/threonine-protein kinase (RAF1, Homo sapiens, UniProt P04049)", "remaining activity [%]": 98.3}
{"target": "Fibroblast growth factor receptor 2 (FGFR2, Homo sapiens, UniProt P21802)", "remaining activity [%]": 84}
{"target": "Phosphorylase b kinase gamma catalytic chain, liver/testis isoform (PHKG2, Homo sapiens, UniProt P15735)", "remaining activity [%]": 88.3}
{"target": "Serine/threonine-protein kinase Sgk3 (SGK3, Homo sapiens, UniProt Q96BR1)", "remaining activity [%]": 101}
{"target": "Serine/threonine-protein kinase PLK1 (PLK1, Homo sapiens, UniProt P53350)", "remaining activity [%]": 103}
{"target": "Activin receptor type-1 (ACVR1, Homo sapiens, UniProt Q04771)", "remaining activity [%]": 105}
{"target": "Receptor-interacting serine/threonine-protein kinase 2 (RIPK2, Homo sapiens, UniProt O43353)", "remaining activity [%]": 90}
{"target": "Dual serine/threonine and tyrosine protein kinase (DSTYK, Homo sapiens, UniProt Q6XUX3)", "remaining activity [%]": 106}
{"target": "Serine/threonine-protein kinase TAO1 (TAOK1, Homo sapiens, UniProt Q7L7X3)", "remaining activity [%]": 82.3}
